Measured values pooled from the literature.
Protocols differ between the studies behind these lines. Values joined by “and” are separate records of one study, mostly repeats; a detail may differ.
Target: Serine/threonine-protein kinase 4 (STK4, Homo sapiens, UniProt Q13043)

| SMILES | assay | test system | conditions | scale | endpoint | result |
| --- | --- | --- | --- | --- | --- | --- |
| Cc1cccc(O[C@H]2CCC[C@@H](C(C)CNCc3ccncc3)C2)c1 (relative stereo) | kinase activity, kinome panel screening | – | 1 µM | – | inhibition | 3% |
| O=C(O)CCC(=O)c1cccc(NS(=O)(=O)c2c[nH]c3ncccc23)c1 | kinase activity, radiometric | – | 10 µM | – | remaining activity | 96% |
| COc1ccc(C(=O)/C=C/c2ccccc2-c2c[nH]c3ccc(C#N)cc23)c(O)c1 | enzyme activity, inhibitor | – | 20 µM | – | inhibition | 0% |
| C=CC(=O)N1CCc2ccc(-n3c(=O)ccc4cnc5ccc(-c6cnn(C)c6)cc5c43)cc21 | KINOMEscan | – | 1 µM | baseline: DMSO control | remaining binding | 100% |
| C=CC(=O)Nc1cccc(-c2cnc3[nH]cc(C(=O)NC(C)(C)C)c3n2)c1 | enzyme activity, inhibitor | – | 0.1 µM | – | inhibition | 79% |
| COCC12C(=O)NC3C4(C(OC)CC1O)C1CC5(O)C(OC)C(O)C(OC(C)=O)(C1C5OC(=O)c1ccccc1)C3(O)C(OC)C24 (centres unmarked) | kinase activity, inhibitor, ProQinase kinase profiling | – | 25 µM | baseline: control | remaining activity | 93% and 97% |
| CS(=O)(=O)Nc1cccc(-c2csc3cnc(Nc4ccc(N5CCN(CCCCCOc6cccc7c6C(=O)N(C6CCC(=O)NC6=O)C7=O)CC5)cc4)nc23)c1 (centres unmarked) | probe labelling, inhibitor, KiNativ chemoproteomics | MOLT-4 | 1 µM | – | inhibition | -0.856% |
| C=CC(=O)N1Cc2nc(-c3cc(-c4cc(Cl)cnc4Cl)c(F)cc3F)n(-c3ccncn3)c2C1 | cell-free assay, inhibitor | – | 1 µM | – | inhibition | 9.3% |
| COc1c(Cl)cccc1Nc1c(-c2ccncc2C#C[C@@]2(C)CCCN2C(=O)/C=C/CN(C)C)[nH]c2c1C(=O)NCC2 | binding, competition with immobilised ligand | – | 3 µM | – | remaining binding | 89% |
| CNC1C[S+]2CC[S+]3CC[S+](C1)[Ru-4]321([N]=C=S)[n]2c3ccc(OC)cc3c3c4c(c5cc(F)c[n+]1c5c32)C(=O)NC4=O (centres unmarked) | KinomeScan | – | 0.1 µM | baseline: untreated | remaining binding | 100% |
| CNC(=O)C1CCN(c2cc(C)c(F)cc2NC(=O)c2ccc(-c3cc(O)ccc3C)c(C)c2)CC1 | binding, competition with immobilised ligand | – | 1 µM | – | remaining binding | 100% |
| COc1cc(Nc2nccc(-c3cnn4nc(OC)ccc34)n2)cc(C(F)(F)F)c1 | binding, competition with immobilised ligand | – | 1 µM | – | remaining binding | 85% |
| CN1CCN(Cc2ccc(-c3ccc(CO[C@H]4CCC[C@@H]4NC(=O)c4cc(-c5cnn(C)c5)cnc4N)cc3)cc2)CC1 | enzyme activity, inhibitor | – | 0.1 µM | – | inhibition | -4% |
| NC(=O)C[C@H]1CCc2sc3ncnc(O[C@H]4CC[C@H](N5CCOCC5)CC4)c3c21 | enzyme activity, inhibitor | – | 10 µM | – | inhibition | 8% |
| Cc1ccc(C(=O)Nc2ccc(CN3CCN(C)CC3)c(C(F)(F)F)c2)cc1C#Cc1cnc2cccnn12 | target engagement, NanoBRET | human cells | – | – | Hill slope | 1.64 |
| Cc1cnc2nc1Nc1cccc(c1)COC/C=C/COCc1cc(ccc1OCCN1CCOCC1)N2 | cell-free assay | – | 0.1 µM | – | remaining signal | 100% |
| CCn1cc(C(=O)O)c(=O)c2c(N)c(F)c(NC3CCCCC3)cc21 | kinase activity | – | 0.1 µM, with: ATP at Km | – | inhibition | 10.1% |

A few entries again:
| SMILES | assay | test system | conditions | scale | endpoint | result |
| --- | --- | --- | --- | --- | --- | --- |
| O=C(O)CCC(=O)c1cccc(NS(=O)(=O)c2c[nH]c3ncccc23)c1 | kinase activity, radiometric | – | 10 µM | – | remaining activity | 96% |
| COCC12C(=O)NC3C4(C(OC)CC1O)C1CC5(O)C(OC)C(O)C(OC(C)=O)(C1C5OC(=O)c1ccccc1)C3(O)C(OC)C24 (centres unmarked) | kinase activity, inhibitor, ProQinase kinase profiling | – | 25 µM | baseline: control | remaining activity | 93% and 97% |
